Published values gathered from unrelated publications.
Protocols differ between the studies behind these lines. Several values in a cell are separate wells, animals, samples, runs or records.
Target: Serine/threonine-protein kinase NLK (NLK, Homo sapiens, UniProt Q9UBE8)

SMILES	test	system	setting	scale	endpoint	value
C=CC(=O)N1Cc2nc(-c3cc(-c4cc(Cl)cnc4Cl)c(F)cc3F)n(-c3ccncn3)c2C1	cell-free assay		1 µM		inhibition	0.5%
C=CC(=O)N1CCc2ccc(-n3c(=O)ccc4cnc5ccc(-c6cnn(C)c6)cc5c43)cc21	KINOMEscan		1 µM	relative to: DMSO control	remaining binding	100%
COc1c(Cl)cccc1Nc1c(-c2ccncc2C#C[C@@]2(C)CCCN2C(=O)/C=C/CN(C)C)[nH]c2c1C(=O)NCC2	binding, competition with immobilised ligand		3 µM		remaining binding	4.1%
COCC12C(=O)NC3C4(C(OC)CC1O)C1CC5(O)C(OC)C(O)C(OC(C)=O)(C1C5OC(=O)c1ccccc1)C3(O)C(OC)C24 (stereo not drawn)	kinase activity, inhibitor, ProQinase kinase profiling		25 µM	relative to: control	remaining activity	101% and 113%
CNC(=O)C1CCN(c2cc(C)c(F)cc2NC(=O)c2ccc(-c3cc(O)ccc3C)c(C)c2)CC1	binding, competition with immobilised ligand		1 µM		remaining binding	100%
CC(C)=CC1OC(C)(C)C2C=C3C(=O)C(Cl)=CC(O)C3C3C(O)C4OC4C(=O)C132 (stereo not drawn)	cell-free assay, competition with immobilised ligand		10 µM		remaining binding	92%
CNC1C[S+]2CC[S+]3CC[S+](C1)[Ru-4]321([N]=C=S)[n]2c3ccc(OC)cc3c3c4c(c5cc(F)c[n+]1c5c32)C(=O)NC4=O (stereo not drawn)	KinomeScan		0.1 µM	relative to: untreated	remaining binding	82%
Cc1nc2c(F)cc(-c3nc(Nc4ccc(CNC(=O)CCCCCCC(=O)NO)cc4)ncc3F)cc2n1C(C)C	enzyme activity, inhibitor		1 µM		inhibition	68%
CCN1CCN(Cc2ccc(C(=O)Nc3ccc(C)c(NCc4cnc5[nH]ccc5c4OC)c3)cc2C(F)(F)F)CC1	binding, competition with immobilised ligand		1 µM		remaining binding	28%
CN1CC[C@@H](COc2cnc(C#N)cc2-c2ccn3nc(NC(=O)C4CC4)cc3c2)C1	enzyme activity, inhibitor		1 µM		inhibition	30%
COc1cc(Nc2nccc(-c3cnn4nc(OC)ccc34)n2)cc(C(F)(F)F)c1	binding, competition with immobilised ligand		1 µM		remaining binding	97%
CNC(=O)C[C@H](Cc1ccc(C#N)cc1)NC(=O)c1cc(-c2ccc(CN[C@H](C)c3ccc(C)cc3)o2)ccc1Cl	enzyme activity, inhibitor		1 µM		activity vs control	100%
CCN1CCN(Cc2ccc(NC(=O)c3ccc(C)c(NC(=O)c4cncc(-c5cccs5)c4)c3)cc2C(F)(F)F)CC1	binding, competition with immobilised ligand		1 µM		remaining binding	20%
NC(=O)[C@@H](O)C[C@H]1CCc2sc3ncnc(O[C@H]4CC[C@H](N5CCOCC5)CC4)c3c21	enzyme activity, inhibitor		10 µM		inhibition	0%
C=CC(=O)Nc1cc(-c2nn(C3CCN(CCNC(=O)[C@H](C)CCC45CC6CC(CC(C6)C4)C5)CC3)c3ncnc(N)c23)ccc1Oc1ccccc1	inhibitor, KiNativ profiling	biochemical	2 µM		inhibition	22.7%

Excerpt of the above:
SMILES	test	system	setting	scale	endpoint	value
CCN1CCN(Cc2ccc(C(=O)Nc3ccc(C)c(NCc4cnc5[nH]ccc5c4OC)c3)cc2C(F)(F)F)CC1	binding, competition with immobilised ligand		1 µM		remaining binding	28%
